{"data": "Results pooled from the literature", "note": "Each numbered part is a random draw from the data of one study; scales do not carry over between parts.", "UniProt P42336, sequence (whole entry, unmodified, looked up)": "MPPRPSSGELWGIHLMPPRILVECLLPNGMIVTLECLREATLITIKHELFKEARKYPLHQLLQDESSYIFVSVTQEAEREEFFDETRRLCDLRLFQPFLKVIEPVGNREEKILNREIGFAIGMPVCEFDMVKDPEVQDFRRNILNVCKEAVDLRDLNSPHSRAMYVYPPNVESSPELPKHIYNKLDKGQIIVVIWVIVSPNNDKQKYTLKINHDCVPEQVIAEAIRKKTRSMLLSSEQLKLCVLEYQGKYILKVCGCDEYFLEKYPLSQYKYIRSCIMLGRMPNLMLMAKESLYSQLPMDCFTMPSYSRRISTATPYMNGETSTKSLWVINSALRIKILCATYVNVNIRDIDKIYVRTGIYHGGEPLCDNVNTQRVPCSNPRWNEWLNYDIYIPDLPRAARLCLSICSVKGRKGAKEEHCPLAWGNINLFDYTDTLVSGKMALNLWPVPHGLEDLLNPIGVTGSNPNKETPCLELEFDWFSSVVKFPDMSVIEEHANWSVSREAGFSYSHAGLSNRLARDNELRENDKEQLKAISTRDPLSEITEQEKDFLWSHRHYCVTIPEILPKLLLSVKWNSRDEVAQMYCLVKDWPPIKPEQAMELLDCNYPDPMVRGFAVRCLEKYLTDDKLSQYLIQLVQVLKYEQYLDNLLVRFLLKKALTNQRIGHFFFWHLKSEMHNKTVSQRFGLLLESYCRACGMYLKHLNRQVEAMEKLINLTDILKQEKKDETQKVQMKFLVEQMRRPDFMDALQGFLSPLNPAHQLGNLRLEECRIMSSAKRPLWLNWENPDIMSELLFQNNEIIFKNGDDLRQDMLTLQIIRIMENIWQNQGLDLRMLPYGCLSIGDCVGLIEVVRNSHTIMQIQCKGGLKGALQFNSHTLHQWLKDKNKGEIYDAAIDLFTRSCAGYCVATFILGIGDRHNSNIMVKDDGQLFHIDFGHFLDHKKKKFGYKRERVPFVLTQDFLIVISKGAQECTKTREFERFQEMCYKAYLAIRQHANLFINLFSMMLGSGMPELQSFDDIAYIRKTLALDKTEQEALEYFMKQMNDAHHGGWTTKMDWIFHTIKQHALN", "UniProt P41240, sequence (whole entry, looked up)": "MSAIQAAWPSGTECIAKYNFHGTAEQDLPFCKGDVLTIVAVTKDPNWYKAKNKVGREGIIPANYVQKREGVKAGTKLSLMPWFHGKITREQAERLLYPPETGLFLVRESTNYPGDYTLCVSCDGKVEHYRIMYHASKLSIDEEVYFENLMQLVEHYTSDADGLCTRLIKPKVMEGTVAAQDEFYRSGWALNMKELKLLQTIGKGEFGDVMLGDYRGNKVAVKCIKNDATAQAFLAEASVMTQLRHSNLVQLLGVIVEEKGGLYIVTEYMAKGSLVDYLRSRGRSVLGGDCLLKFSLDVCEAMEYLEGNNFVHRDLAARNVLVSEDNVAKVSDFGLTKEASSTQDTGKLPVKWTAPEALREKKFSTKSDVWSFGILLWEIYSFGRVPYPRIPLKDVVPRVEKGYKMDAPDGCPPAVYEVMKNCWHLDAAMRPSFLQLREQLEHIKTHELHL", "UniProt Q9BVS4, sequence (whole entry, looked up)": "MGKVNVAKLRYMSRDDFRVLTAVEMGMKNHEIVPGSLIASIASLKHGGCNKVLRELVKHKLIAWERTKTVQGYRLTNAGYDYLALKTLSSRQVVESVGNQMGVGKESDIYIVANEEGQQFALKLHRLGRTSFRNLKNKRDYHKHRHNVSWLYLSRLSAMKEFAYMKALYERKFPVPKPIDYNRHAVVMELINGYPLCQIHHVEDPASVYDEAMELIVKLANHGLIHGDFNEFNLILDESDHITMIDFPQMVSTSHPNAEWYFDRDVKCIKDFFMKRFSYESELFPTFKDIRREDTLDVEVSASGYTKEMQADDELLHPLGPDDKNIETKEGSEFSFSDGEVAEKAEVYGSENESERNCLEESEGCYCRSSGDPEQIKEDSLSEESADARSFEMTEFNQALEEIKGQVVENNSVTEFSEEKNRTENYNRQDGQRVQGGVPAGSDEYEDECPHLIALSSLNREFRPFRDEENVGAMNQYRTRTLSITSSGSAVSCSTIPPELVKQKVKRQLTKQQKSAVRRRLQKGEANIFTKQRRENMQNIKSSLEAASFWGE", "UniProt Q8N5S9, sequence (whole entry, looked up)": "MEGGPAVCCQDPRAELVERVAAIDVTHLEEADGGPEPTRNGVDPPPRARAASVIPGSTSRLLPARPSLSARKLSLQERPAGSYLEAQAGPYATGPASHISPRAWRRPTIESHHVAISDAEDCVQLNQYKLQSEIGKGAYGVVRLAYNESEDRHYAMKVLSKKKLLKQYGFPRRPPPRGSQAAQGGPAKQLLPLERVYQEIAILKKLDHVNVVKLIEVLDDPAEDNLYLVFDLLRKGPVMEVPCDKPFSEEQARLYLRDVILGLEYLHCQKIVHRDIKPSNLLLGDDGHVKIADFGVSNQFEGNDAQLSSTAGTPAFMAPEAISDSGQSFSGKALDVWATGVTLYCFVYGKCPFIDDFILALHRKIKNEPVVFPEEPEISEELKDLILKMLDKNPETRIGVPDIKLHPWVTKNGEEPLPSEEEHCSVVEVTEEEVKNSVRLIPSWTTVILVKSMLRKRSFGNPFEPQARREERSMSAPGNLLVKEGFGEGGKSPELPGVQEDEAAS", "UniProt Q9P1W9, sequence (whole entry, looked up)": "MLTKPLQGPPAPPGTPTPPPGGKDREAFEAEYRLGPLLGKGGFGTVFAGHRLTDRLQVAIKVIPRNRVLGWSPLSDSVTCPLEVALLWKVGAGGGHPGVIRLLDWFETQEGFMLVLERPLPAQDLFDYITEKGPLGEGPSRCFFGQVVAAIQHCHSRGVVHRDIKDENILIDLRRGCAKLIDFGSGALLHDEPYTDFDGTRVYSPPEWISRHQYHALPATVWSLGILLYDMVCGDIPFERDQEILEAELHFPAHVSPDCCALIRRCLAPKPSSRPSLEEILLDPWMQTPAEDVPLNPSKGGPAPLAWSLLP", "UniProt Q8TD19, sequence (whole entry, looked up)": "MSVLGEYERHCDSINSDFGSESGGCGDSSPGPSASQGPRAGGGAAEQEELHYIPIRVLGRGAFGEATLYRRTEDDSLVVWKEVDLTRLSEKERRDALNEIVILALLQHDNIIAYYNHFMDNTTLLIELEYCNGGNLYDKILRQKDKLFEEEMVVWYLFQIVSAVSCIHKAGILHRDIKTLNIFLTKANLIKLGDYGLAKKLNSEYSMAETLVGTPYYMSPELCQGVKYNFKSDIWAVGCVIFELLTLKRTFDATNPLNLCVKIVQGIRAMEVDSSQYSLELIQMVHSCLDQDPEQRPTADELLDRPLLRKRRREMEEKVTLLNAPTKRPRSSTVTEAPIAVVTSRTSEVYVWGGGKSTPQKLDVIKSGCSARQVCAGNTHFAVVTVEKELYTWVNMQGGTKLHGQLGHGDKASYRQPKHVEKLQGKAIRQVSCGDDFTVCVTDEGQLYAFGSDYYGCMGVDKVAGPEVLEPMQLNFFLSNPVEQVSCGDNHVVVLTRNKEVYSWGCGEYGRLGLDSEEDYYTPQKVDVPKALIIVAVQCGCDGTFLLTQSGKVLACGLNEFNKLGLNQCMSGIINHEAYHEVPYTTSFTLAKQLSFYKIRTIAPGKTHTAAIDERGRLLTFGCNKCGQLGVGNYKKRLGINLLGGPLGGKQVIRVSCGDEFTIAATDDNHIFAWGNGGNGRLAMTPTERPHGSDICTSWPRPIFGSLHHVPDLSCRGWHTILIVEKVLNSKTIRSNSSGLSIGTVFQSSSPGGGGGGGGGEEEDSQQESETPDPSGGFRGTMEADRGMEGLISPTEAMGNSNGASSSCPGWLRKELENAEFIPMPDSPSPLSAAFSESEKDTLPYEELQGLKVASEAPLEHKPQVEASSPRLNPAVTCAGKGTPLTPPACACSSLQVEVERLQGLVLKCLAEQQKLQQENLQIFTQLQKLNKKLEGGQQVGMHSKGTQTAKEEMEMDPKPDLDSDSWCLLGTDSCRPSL", "UniProt Q7KZI7, sequence (whole entry, looked up)": "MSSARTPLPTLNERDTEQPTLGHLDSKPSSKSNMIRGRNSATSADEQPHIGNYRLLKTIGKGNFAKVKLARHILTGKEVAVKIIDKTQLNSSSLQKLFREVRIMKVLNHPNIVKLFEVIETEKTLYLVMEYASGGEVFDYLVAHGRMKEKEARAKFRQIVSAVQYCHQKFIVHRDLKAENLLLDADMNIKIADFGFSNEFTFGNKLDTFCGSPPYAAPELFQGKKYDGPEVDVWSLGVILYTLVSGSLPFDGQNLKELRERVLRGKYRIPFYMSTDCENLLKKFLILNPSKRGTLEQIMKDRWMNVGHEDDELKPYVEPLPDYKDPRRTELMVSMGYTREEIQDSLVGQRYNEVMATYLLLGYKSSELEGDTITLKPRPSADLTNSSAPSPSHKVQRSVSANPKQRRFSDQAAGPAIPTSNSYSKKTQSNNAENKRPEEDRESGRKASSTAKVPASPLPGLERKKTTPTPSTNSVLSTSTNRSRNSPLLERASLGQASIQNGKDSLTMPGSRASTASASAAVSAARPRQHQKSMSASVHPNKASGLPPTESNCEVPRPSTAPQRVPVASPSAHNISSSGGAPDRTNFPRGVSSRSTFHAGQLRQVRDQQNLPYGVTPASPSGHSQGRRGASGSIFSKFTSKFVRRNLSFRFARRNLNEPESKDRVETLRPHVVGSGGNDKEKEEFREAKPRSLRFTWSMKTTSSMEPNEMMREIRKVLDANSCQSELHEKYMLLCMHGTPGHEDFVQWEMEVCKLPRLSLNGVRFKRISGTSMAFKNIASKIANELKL"}
{"data": "Sample 1", "SMILES": "CN([C@@H]1CCc2c(CC(=O)O)c3cc(S(C)(=O)=O)ccc3n2C1)S(=O)(=O)c1ccc(F)cc1", "observed": "cell-free assay", "method": "competition with immobilised ligand", "tested at": "1 µM"}
{"target": "Mitogen-activated protein kinase kinase kinase 9 (MAP3K9, Homo sapiens, UniProt P80192)", "remaining binding [%]": 91}
{"target": "Interleukin-1 receptor-associated kinase 1 (IRAK1, Homo sapiens, UniProt P51617)", "remaining binding [%]": 91}
{"target": "Serine/threonine-protein kinase MARK2 (MARK2, Homo sapiens, UniProt Q7KZI7)", "remaining binding [%]": 100}
{"target": "Serine/threonine-protein kinase Nek9 (NEK9, Homo sapiens, UniProt Q8TD19)", "remaining binding [%]": 81}
{"target": "Phosphatidylinositol 4,5-bisphosphate 3-kinase catalytic subunit alpha isoform (PIK3CA, Homo sapiens, UniProt P42336)", "remaining binding [%]": 100}
{"target": "Serine/threonine-protein kinase RIO2 (RIOK2, Homo sapiens, UniProt Q9BVS4)", "remaining binding [%]": 96}
{"target": "Tyrosine-protein kinase ABL1, non-phosphorylated (ABL1, Homo sapiens, UniProt P00519, Q252H)", "remaining binding [%]": 98}
{"target": "Serine/threonine-protein kinase pim-2 (PIM2, Homo sapiens, UniProt Q9P1W9)", "remaining binding [%]": 100}
{"target": "Ephrin type-A receptor 3 (EPHA3, Homo sapiens, UniProt P29320)", "remaining binding [%]": 97}
{"target": "NUAK family SNF1-like kinase 2 (NUAK2, Homo sapiens, UniProt Q9H093)", "remaining binding [%]": 87}
{"target": "Calcium/calmodulin-dependent protein kinase kinase 1 (CAMKK1, Homo sapiens, UniProt Q8N5S9)", "remaining binding [%]": 100}
{"target": "Tyrosine-protein kinase CSK (CSK, Homo sapiens, UniProt P41240)", "remaining binding [%]": 99}
{"target": "Serine/threonine-protein kinase TAO2 (TAOK2, Homo sapiens, UniProt Q9UL54)", "remaining binding [%]": 100}
{"target": "Phosphatidylinositol 4,5-bisphosphate 3-kinase catalytic subunit alpha isoform (PIK3CA, Homo sapiens, UniProt P42336, C420R)", "remaining binding [%]": 98}
{"data": "Sample 2", "target": "RING finger protein unkempt homolog, zinc fingers 1-6, GST-SBP tag (UNK, Homo sapiens, UniProt Q9C0B0, residues 30-357)", "method": "RNA Bind-n-Seq", "molecule type": "RNA", "sample": "in vitro", "tested at": "not given", "notes": "RNA with constant flanks, human and mouse sites, ends assumed", "relative to": "input RNA pool", "reading": "higher = stronger binding", "shared flanks, not repeated": "GGGAGUUCUACAGUCCGACGAUC … CAACAGAGGAUUGAGCAUCA", "UniProt Q9C0B0, sequence (30-357, looked up)": "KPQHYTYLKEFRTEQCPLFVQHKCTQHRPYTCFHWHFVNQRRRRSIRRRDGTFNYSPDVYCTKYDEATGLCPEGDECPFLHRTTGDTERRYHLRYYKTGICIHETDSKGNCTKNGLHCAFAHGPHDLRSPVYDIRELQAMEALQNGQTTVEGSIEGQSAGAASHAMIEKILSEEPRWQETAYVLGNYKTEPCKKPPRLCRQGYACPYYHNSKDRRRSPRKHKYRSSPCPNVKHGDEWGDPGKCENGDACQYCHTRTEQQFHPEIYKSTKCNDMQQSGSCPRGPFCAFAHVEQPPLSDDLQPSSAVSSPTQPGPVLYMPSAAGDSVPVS"}
{"Oligonucleotide": "CAUACGCUGGCCGCCUAUUACCCGGACAGGCCCACGCCAGAACAACAACAGGAUAUGGCCCAGUUCAUACAUAUAUUUUCCAAGUUUUACCCCUGCGAGGAAUGUGCGGAAGACAUAAGG", "bound/input enrichment": "0.22 ratio"}
{"Oligonucleotide": "CAAGAUUUCCAAAUGUUAAGUAGAAUCUGGACUCAUCCUUGGUGUUUGCAACUGGACUAUAUCAGCAAAGAAAAUAAGGGUUAUUUUGAUGAAGAUAGUAUGGAUGAAUUUAUAGCUUCA", "bound/input enrichment": "0.462 ratio"}
{"Oligonucleotide": "AUUACAGCGUGGAUGAAUGCAAUUGGUCUGAUCAUCACGGCCCUCCCAGAGCCGUACUGGAUUGUGCUUCAUGACCGAAUUGUGAAUGUGAUCAGCAGUUCUAGCCUGACGUCAGAGACA", "bound/input enrichment": "0.186 ratio"}
{"Oligonucleotide": "CAGCGUUGCCUCCCUGUCCUGGGCAGGGGCCACUUAUUAUUUUAUUUAUUUUUAAUUUAUAAUUUAUUCAAAUUGGAUUGCCUUGGUGACCUCCCAAACCUGAUAAUUGGCAUCACCCCA", "bound/input enrichment": "3.6 ratio"}
{"Oligonucleotide": "AGGAUAAACUAAGCCAUUUUAUGUAUUUUAUUUUAAACCUUAUUUUGGCAGAGUAAUUCCUUAGAAUUGGAAAAGCUGUUACUUUGAAAUUACCAAUUUAUUACAAAACAUAGAAAUGUA", "bound/input enrichment": "2.85 ratio"}
{"Oligonucleotide": "AUUUCUGCAAUUGAGAAACAGGCACACAAGUGUGAGGAGUUGCUAAAUGCUCAGCAUCAGAGGCUCCUUGAAAUGCUAGAUACAGAGAAGGAACUGUUAAAAGAAAAAAUAAAGGAAGCU", "bound/input enrichment": "0.781 ratio"}
{"Oligonucleotide": "CAGAUGAUUCUUGACAAGAAAUUUCAUGGGAUUUUGGACCAGGGGGAGGGUGUCCUGAUUAUUUUCGAUGAACCCCCAGUAGAUAAAACUUACGAAGCUGCUCUGGAAACAAUUCAGAAC", "bound/input enrichment": "0.718 ratio"}
{"Oligonucleotide": "AGCCUGUGUGUAAAAUCCAGCUUGACUGCACCCCCCCUUUUUUGUUUCACUGUUUUCUAGUUUAGAAAUCUCAGAACUAACUAAUUUUACAGAACUUUUCUUAAUUUGCUCAUCAUGUUU", "bound/input enrichment": "2.12 ratio"}
{"data": "Mixed results"}
{"Substance": "SUCLG1 (Homo sapiens, UniProt P53597)", "tested on": "SUCLG2 (Homo sapiens, UniProt Q96I99)", "assay": "cross-linking MS", "system": "cell fractions", "setting": "added: DSSO", "endpoint": "cross-linked residues", "result": "K308 to K132"}
{"Substance": "CCOCCCn1nnc2c(O)nc(C(=O)NCc3cccc(Cl)c3)nc21", "system": "human, microsomes or S9", "setting": "2 µM, 0.5 h", "endpoint": "remaining compound", "result": "42.2%"}
{"Substance": "GSN (Homo sapiens, UniProt P06396)", "tested on": "GOT1 (Homo sapiens, UniProt P17174)", "assay": "cross-linking MS", "system": "cell fractions", "setting": "added: DSSO", "endpoint": "cross-linked residues", "result": "K169 to K290"}
{"Substance": "Cc1ccc(C=C2CNCC(=Cc3ccc(C)cc3)C2=O)cc1", "tested on": "mouse MPNST tumor cells", "assay": "high-content immunofluorescence imaging, item: nuclear SOX9", "setting": "10 µM, 12 h, mean of 2 replicates", "how to read": "relative to: DMSO control, higher = more nuclear SOX9", "endpoint": "nuclear SOX9 intensity", "result": "104 % of DMSO"}
{"Substance": "ZFYVE9 (Homo sapiens, UniProt O95405)", "tested on": "LRPAP1 (Homo sapiens, UniProt P30533)", "assay": "cross-linking MS", "system": "cell fractions", "setting": "added: DSSO", "endpoint": "cross-linked residues", "result": "S1219 to K225"}
{"Substance": "C[C@]12CC[C@@H]3c4ccc(O)cc4CC[C@H]3[C@@H]1CCC2=O", "tested on": "mouse MPNST tumor cells", "assay": "high-content immunofluorescence imaging, item: nuclear SOX9", "setting": "10 µM, 12 h, mean of 2 replicates", "how to read": "relative to: DMSO control, higher = more nuclear SOX9", "endpoint": "nuclear SOX9 intensity", "result": "105 % of DMSO"}
{"Substance": "DNAAF5 (Homo sapiens, UniProt Q86Y56)", "tested on": "RUVBL1 (Homo sapiens, UniProt Q9Y265)", "assay": "cross-linking MS", "system": "cell fractions", "setting": "added: DSSO", "endpoint": "cross-linked residues", "result": "S42 to K422"}
{"Substance": "O=c1[nH]cccc1-c1nc(-c2cccc(Br)c2)no1", "system": "human, microsomes or S9", "setting": "2 µM, 0.5 h", "endpoint": "remaining compound", "result": "66.9%"}
